Measured values from different studies.
Parts stem from different laboratories: compare values within a part only.
UniProt O14976, sequence (whole entry, looked up): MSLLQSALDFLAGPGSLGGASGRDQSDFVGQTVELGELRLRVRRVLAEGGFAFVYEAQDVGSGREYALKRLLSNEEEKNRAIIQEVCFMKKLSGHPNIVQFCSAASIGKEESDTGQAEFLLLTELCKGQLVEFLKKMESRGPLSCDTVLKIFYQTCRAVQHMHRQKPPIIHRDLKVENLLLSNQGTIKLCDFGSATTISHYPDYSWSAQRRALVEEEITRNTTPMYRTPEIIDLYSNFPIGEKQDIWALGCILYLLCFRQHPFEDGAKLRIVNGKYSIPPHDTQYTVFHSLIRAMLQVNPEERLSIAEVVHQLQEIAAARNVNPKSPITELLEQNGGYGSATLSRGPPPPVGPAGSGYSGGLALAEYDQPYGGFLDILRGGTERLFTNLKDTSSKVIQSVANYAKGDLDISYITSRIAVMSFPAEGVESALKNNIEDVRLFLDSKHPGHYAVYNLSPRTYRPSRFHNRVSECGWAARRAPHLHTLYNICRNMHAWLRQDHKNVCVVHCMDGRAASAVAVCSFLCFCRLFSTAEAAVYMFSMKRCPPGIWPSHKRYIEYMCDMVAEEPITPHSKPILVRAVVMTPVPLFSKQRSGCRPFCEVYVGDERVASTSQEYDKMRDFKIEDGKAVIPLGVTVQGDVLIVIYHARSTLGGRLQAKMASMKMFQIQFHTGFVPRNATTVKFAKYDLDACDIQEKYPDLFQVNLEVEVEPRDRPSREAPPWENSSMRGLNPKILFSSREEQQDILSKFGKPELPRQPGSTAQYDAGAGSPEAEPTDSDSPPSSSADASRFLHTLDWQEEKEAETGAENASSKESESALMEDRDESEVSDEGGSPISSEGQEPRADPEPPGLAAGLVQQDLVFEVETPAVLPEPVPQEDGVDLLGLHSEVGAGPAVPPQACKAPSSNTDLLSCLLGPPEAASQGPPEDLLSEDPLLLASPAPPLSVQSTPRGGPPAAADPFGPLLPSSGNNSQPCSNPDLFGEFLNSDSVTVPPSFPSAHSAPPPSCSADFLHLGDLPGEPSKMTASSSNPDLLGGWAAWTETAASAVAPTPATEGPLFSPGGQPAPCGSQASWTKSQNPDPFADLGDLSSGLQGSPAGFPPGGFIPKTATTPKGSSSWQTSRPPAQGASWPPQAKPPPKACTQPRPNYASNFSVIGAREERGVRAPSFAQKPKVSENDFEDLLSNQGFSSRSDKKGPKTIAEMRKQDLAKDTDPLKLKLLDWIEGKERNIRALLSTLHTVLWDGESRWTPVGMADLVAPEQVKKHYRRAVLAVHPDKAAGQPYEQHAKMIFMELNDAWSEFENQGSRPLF
UniProt P49137, sequence (whole entry, looked up): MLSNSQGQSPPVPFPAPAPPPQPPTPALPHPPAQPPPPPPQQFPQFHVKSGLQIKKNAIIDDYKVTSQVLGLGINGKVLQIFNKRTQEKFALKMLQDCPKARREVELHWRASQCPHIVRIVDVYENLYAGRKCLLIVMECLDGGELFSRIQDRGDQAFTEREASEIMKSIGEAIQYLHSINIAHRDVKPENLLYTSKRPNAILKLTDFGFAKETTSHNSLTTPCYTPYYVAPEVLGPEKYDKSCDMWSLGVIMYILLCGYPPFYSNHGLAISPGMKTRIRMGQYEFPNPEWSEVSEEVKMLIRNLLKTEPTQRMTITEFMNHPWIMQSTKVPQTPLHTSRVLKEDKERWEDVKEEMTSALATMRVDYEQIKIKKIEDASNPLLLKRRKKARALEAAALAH
UniProt O43293, sequence (whole entry, looked up): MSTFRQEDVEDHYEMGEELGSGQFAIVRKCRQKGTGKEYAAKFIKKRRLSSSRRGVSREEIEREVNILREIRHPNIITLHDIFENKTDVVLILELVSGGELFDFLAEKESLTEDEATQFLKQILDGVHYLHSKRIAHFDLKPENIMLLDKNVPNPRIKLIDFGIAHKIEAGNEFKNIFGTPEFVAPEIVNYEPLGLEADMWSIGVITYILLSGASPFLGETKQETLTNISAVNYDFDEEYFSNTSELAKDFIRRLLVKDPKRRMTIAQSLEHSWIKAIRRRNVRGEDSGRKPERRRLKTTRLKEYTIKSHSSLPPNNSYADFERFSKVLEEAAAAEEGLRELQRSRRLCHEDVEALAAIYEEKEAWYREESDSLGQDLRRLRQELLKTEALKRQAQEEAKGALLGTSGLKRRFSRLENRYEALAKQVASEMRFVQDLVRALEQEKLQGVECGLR

Set 1 — effect on: enzyme activity; action: inhibitor; tested at: 0.5 µM; relative to: control
Target: Proto-oncogene tyrosine-protein kinase Src (SRC, Homo sapiens, UniProt P12931)
SMILES | remaining activity [%]
O=C1NC(=O)c2c1c1c3ccccc3[nH]c1n1cncc21 | 88.4
c1ccc(-c2n[nH]c3c2oc2ccccc23)cc1 | 81.3
O=C1NC(=O)c2c1c1c3ccccc3[nH]c1c1[nH]c3cc(Br)ccc3c21 | 88.9
Oc1cccc(-c2nc(N3CCOCC3)c3oc4ncccc4c3n2)c1 | 97.2
N#Cc1cnc2cnc(NCc3cccnc3)cc2c1Nc1ccc(F)c(Cl)c1 | 92.6
O=c1cc(N2CCOCC2)oc2c(-c3ccccc3)cccc12 | 96.3
COc1ccc2c(c1)c(C1=C(c3c[nH]c4ccccc34)C(=O)NC1=O)cn2CCCN(C)C | 79.8
O=C1Nc2ccc(Br)cc2/C1=C/c1cc2c([nH]1)CCCC2 | 88.8
COc1cccc(-c2cc(=O)c3ccccc3o2)c1N | 92.6
O=C1Cc2c([nH]c3ccc(Br)cc23)-c2ccccc2N1 | 71.3
Cc1ccc(S(=O)(=O)/C=C/C#N)cc1 | 102
CCCCc1c(-c2ccc(OC)cc2)[nH]c2nccnc12 | 58.8
O=C1Nc2ccccc2/C1=C\c1c(Cl)[nH]c2ccccc12 | 78.5
CN(C)S(=O)(=O)c1ccc2c(c1)/C(=C/c1cc3c([nH]1)CCCC3)C(=O)N2 | 23.6
Cc1cc(Nc2cc(N3CCN(C)CC3)nc(Sc3ccc(NC(=O)C4CC4)cc3)n2)[nH]n1 | 26.7
CCCNC(=O)Nc1ccc(Oc2ncnc3cc(OC)c(OC)cc23)cc1Cl | 98.6
O=Nc1c(-c2c(O)[nH]c3cc(Br)ccc23)[nH]c2ccccc12 | 7.64
O=C(c1cc2cc(O)ccc2[nH]1)c1cc2cc(O)ccc2[nH]1 | 36.4
CN1CCN(c2ccc3nc(-c4c(N)c5c(F)cccc5[nH]c4=O)[nH]c3c2)CC1 | 16
c1ccc2c(-c3ccncc3)c[nH]c2c1 | 100

Set 2 — organism: Sarcocystis neurona; effect on: parasite activity; tested at: 10 µM; time: 96 h
Structure (SMILES) | activity class
COc1ccc2[nH]c([S+]([O-])Cc3ncc(C)c(OC)c3C)nc2c1 (centres unmarked) | inactive
CN(C)CCC(c1ccc(Cl)cc1)c1ccccn1 (centres unmarked) | inactive
COc1cccc2c1C(=O)c1c(O)c3c(c(O)c1C2=O)C[C@@](O)(C(=O)CO)C[C@@H]3O[C@H]1C[C@H](N)[C@@H](O)[C@H](C)O1 | inactive

Set 3 — cell line: HaCaT; tested at: 100 µM; time: 36 h
SMILES | viability [%]
N=C(N)N/N=C/c1c(Cl)cccc1Cl | 6.57
CCCCC(O)c1ccccc1 (centres unmarked) | 89.3
COC(c1ccccc1)(c1ccccc1)[C@H](Oc1nc(C)cc(C)n1)C(=O)O | 112

Set 4 — effect on: cell-free assay; technique: competition with immobilised ligand; tested at: 1 µM
SMILES: CN(C(=O)c1ccccc1)c1cc(N(C)c2ccc3c(c2)CCc2ccc(C(=O)NCCN4CCOCC4)cc2C3=O)ccc1F
target | remaining binding
MAPKAPK2 (Homo sapiens, UniProt P49137) | 100%
FLT3 (Homo sapiens, UniProt P36888, D835V) | 100%
EGFR (Homo sapiens, UniProt P00533, A750P/del747-749) | 94%
GAK (Homo sapiens, UniProt O14976) | 92%
DAPK3 (Homo sapiens, UniProt O43293) | 81%

Set 5
SMILES: CC(C)n1cnc(-c2ccc(F)cc2)c1-c1ncc(C(=O)Nc2ccc(N3CCN(C)CC3)cc2)[nH]1
technique | item | host | route | dose | setting | patients with TEAE [%]
phase 2a trial |  | idiopathic pulmonary fibrosis patients | oral | 30 mg once daily | ESR increased, grade 5 | 0
 | LDL increased | idiopathic pulmonary fibrosis patients |  | 30 mg once daily |  | 0
phase 2a trial |  | patients with idiopathic pulmonary fibrosis |  | 60 mg once daily | eye swelling, grade 4 | 0
phase 2a trial |  | idiopathic pulmonary fibrosis patients | oral | 30 mg once daily | blood/lymphatic disorders, grade 3 | 1
phase 2a trial |  | idiopathic pulmonary fibrosis patients | oral | dose not given | urine red cells, grade 1, all arms | 1

Set 6 — technique: RNA Bind-n-Seq; form: RNA; matrix: in vitro; tested at: 365 nM; relative to: no-protein control; direction: higher = stronger binding
Target: RNA binding protein fox-1 homolog 2, RRM domain, GST-SBP tag (RBFOX2, Homo sapiens, UniProt O43251-10, residues 100-194)
Setting: natural RNA segment, single round, ends assumed
Construct (chain): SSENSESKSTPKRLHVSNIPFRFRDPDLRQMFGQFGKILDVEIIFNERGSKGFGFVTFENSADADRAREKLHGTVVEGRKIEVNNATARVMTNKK
Sequence | RBNS enrichment (R)
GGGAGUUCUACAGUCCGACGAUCUGAAAUAAGGUUUCAAUAUACAUUUACAUACUAUAUAUAUAUUUGGCAACUUGUGUUUGUAUAUAAAUAUAUAUAUAUAUAUAUAUGUUUAUGUAUAUAUGUGAUUCUGAUGGAAUUCUCGGGUGCCAA | 2.53
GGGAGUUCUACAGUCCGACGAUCUUAUCAUAUUGAACAUGUAGUAUCCCAAUACUCUCAACAGUGGAUAAUUAUGAGUAAACCCGGUCCUUUCGAUGUUUAGAGUAAGCAGAGGCCCACAGUGGAGGCUUACCUGGAAUUCUCGGGUGCCAA | 0.783
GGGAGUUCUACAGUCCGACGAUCGAGAGAUUUCUGCUAAUUCUGGGCUUUGAAGCGUACGUCUUUUGAGGGGGCAUUUUGAUGUGGUCCUCCUUGCUUCUGGAGGGACUUGGUUCCCUUUAGAAAACCUGCCCUGGAAUUCUCGGGUGCCAA | 0.524
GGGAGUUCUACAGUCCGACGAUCUUUUAACGACACCCCUACUCCGUAUCCCUCCCCAUCCCAUGCUGCCAACUUCUAACCACAAUAGUGACUCUGUGCUUGUCUGUUUAGUUCUGUGUGUAAAUGAAAUGUGGUGGAAUUCUCGGGUGCCAA | 0.685
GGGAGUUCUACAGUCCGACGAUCAUUUUGCUUUUGUUUGCUUUUUAUUUUUGUGUAAAAUCUAAAUUCCAGGAGCUAUGGGGUUCAUCCAGGCAUGAAGGCUAAUCCACUCUGAGUAAAGUGUCAGUUGCACAUGGAAUUCUCGGGUGCCAA | 5.34
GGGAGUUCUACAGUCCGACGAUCUCUUUGUUAUUUUCAACUGUUCUAUGCUGUGACGAUGAGGAGGAGAUGUCUGUUGGAUUCAUGUCUUUUGCUAUAGUUCAGUAGCUUCUGCUAAAUUUCACUGAUUUUAAUGGAAUUCUCGGGUGCCAA | 0.561
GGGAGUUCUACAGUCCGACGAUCCUCCACGGAGCCAGGCCUCCUCCCAUGGGGUGUCCCAGUGUAUAACUUUAUGACUUAGUUCUUCAUUUCCUGGGGCCUUAUCUUCACUGUGAACAAUAAAGUUUGAACACUGGAAUUCUCGGGUGCCAA | 0.305
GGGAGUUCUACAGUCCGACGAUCAUGCCGUCAAGGAAGGAAUUCAGUUACAGGGCAUCUGUAACUUAAAUAUUGUAAGAAUAACUCAUAUGGAAGUUCAAGCUAUUUUUAUACUAUAAUAGAGUUAUUUAAUUUGGAAUUCUCGGGUGCCAA | 0.494

Some of these lines once more (set 5):
technique | item | host | route | dose | setting | patients with TEAE [%]
phase 2a trial |  | idiopathic pulmonary fibrosis patients | oral | 30 mg once daily | blood/lymphatic disorders, grade 3 | 1
phase 2a trial |  | idiopathic pulmonary fibrosis patients | oral | dose not given | urine red cells, grade 1, all arms | 1
